{"data": "Experimental data of several laboratories", "B1": "enzyme (UniProt A0A1I5R890); chain NKILLRPLLLKQKNPENLRQLIKKSFHRTFDTFESLFSMLRNDEAFYNRPEPLRHPHIFYFGHTAVFFINKLILSKIIDTRINAKMESIFAIGVDEMSWDDLNDDHYEWPSVEETRLYRNRVREVVDNLINTLPLELPITWDSPWWIILMGIEHERIHIETSSVLIRQTDISLVLPQPEWSKCNVSGKAPENELLFVPGGEIEIGKYKSDDYYGWDNEYGKHKTVIPDFKASKYLVSNGEFMEFVKDGGYENDLWWEEEGLAWRNFKKAKHPIFWIPFKNEYRYRTLTEIVDMPLDWPVDVNYHEAKAFCNWLSAKKGKPIRLPVEDEWYRLKEYCNVPDVSKWDEKAPANINLEHYASACPVTQFSFGNFYDVIGNVWQWTETPIYPFNGFKIHPIYDDFSTPTFDNRHNLIKGGSFISTGNEILASSRYAFRRHFFQHAGFRYVESSYKEKINSSGYESDTQVSQYCEFGWGDRYFGIENYPKRCAKICIEVTEGKPRKKALDVGCAIGRSTLELATSFESVTGLDFSARFIEMAERMRKDGSIRYTITTEGELVEYKEATLPKRLAKVVDRVEFWQADACNLKPIFTGYDLVFAGNLIDRLYDPAKFLNDIGKRINSGGMLILTSPYTWLEEFTPKQKWLGGFKQDGEPVKSIDGLKSHLKDSFKLIETRDIEFVIRETARKFQHSVAQMSIWEKI", "B2": "SULT1A3 (Homo sapiens, UniProt P0DMM9); chain MELIQDTSRPPLEYVKGVPLIKYFAEALGPLQSFQARPDDLLINTYPKSGTTWVSQILDMIYQGGDLEKCNRAPIYVRVPFLEVNDPGEPSGLETLKDTPPPRLIKSHLPLALLPQTLLDQKVKVVYVARNPKDVAVSYYHFHRMEKAHPEPGTWDSFLEKFMAGEVSYGSWYQHVQEWWELSRTHPVLYLFYEDMKENPKREIQKILEFVGRSLPEETMDFMVQHTSFKEMKKNPMTNYTTVPQELMDHSISPFMRKGMAGDWKTTFTVAQNERFDADYAEKMAGCSLSFRSEL", "B3": "PPIP5K2 (Homo sapiens, UniProt O43314); chain MSEAPRFFVGPEDTEINPGNYRHFFHHADEDDEEEDDSPPERQIVVGICSMAKKSKSKPMKEILERISLFKYITVVVFEEEVILNEPVENWPLCDCLISFHSKGFPLDKAVAYAKLRNPFVINDLNMQYLIQDRREVYSILQAEGILLPRYAILNRDPNNPKECNLIEGEDHVEVNGEVFQKPFVEKPVSAEDHNVYIYYPTSAGGGSQRLFRKIGSRSSVYSPESNVRKTGSYIYEEFMPTDGTDVKVYTVGPDYAHAEARKSPALDGKVERDSEGKEVRYPVILNAREKLIAWKVCLAFKQTVCGFDLLRANGQSYVCDVNGFSFVKNSMKYYDDCAKILGNIVMRELAPQFHIPWSIPLEAED", "B4": "protein (Thermotoga neapolitana, UniProt B9K712); chain MKMLYDLAKKRKTVRRFKKEKPPLEDLIYSLKVANEAPSGMNAQPWRFLIVEDEKLKGQIRRVCERSEKTFYENVRGRLKEWLDEKRFTWRKPFLKEAPYLLLVFSEKSAPYSRESVWLAVGYLLLALEEKGLGSVPYTPPDFREVEKLVNTPSELRLEVILPVGYPDDPKPKYPRNEVIVRYNTF", "B5": "enzyme (Streptomyces venezuelae, UniProt Q9ZGI2); chain SGADTGAGAGMFRALFRQAVEDDRYGEFLDVLAEASAFRPQFASPEACSERLDPVLLAGGPTDRAEGRAVLVGCTGTAANGGPHEFLRLSTSFQEERDFLAVPLPGYGTGTGTGTALLPADLDTALDAQARAILRAAGDAPVVLLGHSGGALLAHELAFRLERAHGAPPAGIVLVDPYPPGHQEPIEVWSRQLGEGLFAGELEPMSDARLLAMGRYARFLAGPRPGRSSAPVLLVRASEPLGDWQEERGDWRAHWDLPHTVADVPGDHFTMMRDHAPAVAEAVLSWLDAIEGIEGAGK", "B6": "CMPK1 (Homo sapiens, UniProt P30085); chain MKPLVVFVLGGPGAGKGTQCARIVEKYGYTHLSAGELLRDERKNPDSQYGELIEKYIKEGKIVPVEITISLLKREMDQTMAANAQKNKFLIDGFPRNQDNLQGWNKTMDGKADVSFVLFFDCNNEICIERCLERGKSSGRSDDNRESLEKRIQTYLQSTKPIIDLYEEMGKVKKIDASKSVDEVFDEVVQIFDKEG", "B7": "genB3 (Micromonospora echinospora, UniProt Q2MG50); chain MDSANLTNRGLVERARRVTAAENYDIGTRFSAMIQSGEGAWLTDVEGNRYVDLTASSGTIILGHRNQAVTEAITRQIRDFGTAFASTLSVPRVELAERLCERYECAEKVVFHKTGSEGTAMAARLARAATGRELILSCGYHGWHEWQLAGETFGYQQTTGVVGFGYNEKALAKMLEAFGNEVAGVLISPELLYFDVEFYQRMYALCARYDVPFMMDEVYTGFRAGPKGVHGLGVPADVVVVSKGLANGHSLAAVMGRRDIIDAYDVSGIQGTYTREVPPMAAAMAVLDVLDTPGVYEHAEAMGRRLADGMREILTGEGIPNWVGGPALMFDTVLPNDDLGWEIYKTAHDFGVYFEDSGTQLVTTAFDEAAVDHALTAFRKATRQVIADRPDIAPTSGGELTEERKLDFAEEAFGGLLRDDERTNALIDETIEKVVNRDRSIKPVLIPAQN"}
{"Molecule": "B1 (enzyme)", "target or system": "Cn1cncc1C[C@H](N)C(=O)O", "test": "steady-state kinetics", "quantity": "Km", "result": "1.9 µM"}
{"Molecule": "B2 (SULT1A3)", "target or system": "O=C(O[C@@H]1Cc2c(O)cc(O)cc2O[C@@H]1c1cc(O)c(O)c(O)c1)c1cc(O)c(O)c(O)c1", "test": "steady-state kinetics", "setting": "pH 7.4, not purified", "quantity": "Km", "result": "2.29 µM"}
{"Molecule": "enzyme (Astragalus mongholicus, UniProt A0A977WMR2)", "target or system": "CC(C)(O)[C@@H]1CC[C@](C)([C@H]2[C@@H](O)C[C@@]3(C)[C@@H]4C[C@H](O[C@@H]5O[C@H](CO)[C@@H](O)[C@H](O)[C@H]5O)[C@H]5C(C)(C)[C@@H](O)CC[C@@]56C[C@@]46CC[C@]23C)O1", "test": "steady-state kinetics", "quantity": "Km", "result": "86 µM"}
{"Molecule": "RNA 1 GGAGGAUGUUAAUUGGCGUGUCUUGUCUGCAACGGUAUUC / RNA 2 GAAUACCGUUGCAGACAAGACACGCCAAUUAACAUCCUCC (dsRNA)", "target or system": "EIF2AK2 1-551 R107A (Homo sapiens, UniProt P19525)", "test": "sedimentation velocity AUC", "test system": "double-stranded RNA", "setting": "Kd1 first PKR", "quantity": "Kd", "result": "0.225 µM"}
{"Molecule": "B3 (PPIP5K2)", "target or system": "O=P(O)(O)O[C@@H]1[C@@H](OP(=O)(O)O)[C@H](OP(=O)(O)OP(=O)(O)O)[C@@H](OP(=O)(O)O)[C@H](OP(=O)(O)OP(=O)(O)O)[C@@H]1OP(=O)(O)O", "test": "steady-state kinetics", "quantity": "Km", "result": "0.022 µM"}
{"Molecule": "B4 (protein)", "target or system": "N[C@@H](Cc1ccc(O)c(Cl)c1)C(=O)O", "test": "steady-state kinetics", "setting": "pH 7.4, 60 °C", "quantity": "Km", "result": "5 µM"}
{"Molecule": "enzyme (Streptomyces platensis, UniProt A0A0A0V031)", "target or system": "C[C@@]12CCC[C@@](C)(C(=O)OP(=O)(O)OC[C@H]3O[C@@H](n4cnc5c(N)ncnc54)[C@H](O)[C@@H]3O)[C@H]1C[C@@H](O)[C@]13C[C@H]4C[C@H](O[C@@]4(C)C1)[C@@H]23", "test": "steady-state kinetics", "setting": "pH 7.8, 25 °C", "quantity": "Km", "result": "1.5 µM"}
{"Molecule": "B5 (enzyme)", "target or system": "CC[C@@H](O)[C@H](C)/C=C/C(=O)[C@H](C)C[C@H](C)[C@H](OC)[C@@H](C)C(=O)SCCNC(C)=O", "test": "steady-state kinetics", "quantity": "Km", "result": "4460 µM"}
{"Molecule": "B6 (CMPK1)", "target or system": "Nc1ccn(C2OC(COP(=O)(O)O)C(O)C2O)c(=O)n1", "test": "steady-state kinetics", "setting": "37 °C, with: ATP 1 mM", "quantity": "Km", "result": "20 µM"}
{"Molecule": "B7 (genB3)", "target or system": "CN[C@@H]1[C@@H](O)[C@@H](O[C@@H]2[C@@H](O)[C@H](O[C@H]3O[C@H](CN)[C@@H](O)[C@H](OP(=O)(O)O)[C@H]3N)[C@@H](N)C[C@H]2N)OC[C@]1(C)O", "test": "steady-state kinetics", "setting": "30 °C", "quantity": "Km", "result": "500 µM"}
{"Molecule": "enzyme (Streptomyces filamentosus, UniProt A0ABY4UVI6)", "target or system": "CC(C)C[C@H](NC(=O)c1cc(O)cc(-c2ccccn2)n1)C(=O)O", "test": "steady-state kinetics", "setting": "pH 8, 30 °C", "quantity": "Km", "result": "370 µM"}
{"note": "Some of these lines once more:"}
{"Molecule": "B1 (enzyme)", "target or system": "Cn1cncc1C[C@H](N)C(=O)O", "test": "steady-state kinetics", "quantity": "Km", "result": "1.9 µM"}
{"Molecule": "RNA 1 GGAGGAUGUUAAUUGGCGUGUCUUGUCUGCAACGGUAUUC / RNA 2 GAAUACCGUUGCAGACAAGACACGCCAAUUAACAUCCUCC (dsRNA)", "target or system": "EIF2AK2 1-551 R107A (Homo sapiens, UniProt P19525)", "test": "sedimentation velocity AUC", "test system": "double-stranded RNA", "setting": "Kd1 first PKR", "quantity": "Kd", "result": "0.225 µM"}
